Results from different studies.
Lines come from different studies, so protocols differ. Several values in a cell are separate wells, animals, samples, runs or records. Numbers after ± are the reported error.

Under “QTc interval (QTcB or QTcF)”, `Cc1cc(S(C)(=O)=O)c(S(C)(=O)=O)cc1C(=O)NC(=N)N` is recorded as < 450 ms (ambulant boys with DMD; oral, dose not given, 4 weeks).
`O=c1[nH]nc(CCc2cc(F)cc(F)c2)cc1O` has a compound remaining of 59% (metabolic stability; mouse, liver microsomes; 1 h, pH 7.5, with UDPGA).
The median AUC(0-inf) of `CCCC[C@H](NC(C)=O)C(=O)N[C@H]1CCC(=O)NC[C@@H](C(=O)N[C@@H](Cc2c[nH]c3ccccc23)C(N)=O)NC(=O)[C@H](CCCNC(=N)N)NC(=O)[C@@H](Cc2ccccc2)NC(=O)[C@H](Cc2c[nH]cn2)NC1=O` is reported as 49.4 ng·h/mL (healthy volunteers, both sexes, plasma; subcutaneous, 1.0 mg once daily, day 1).
`Nc1ncn([C@H]2C[C@H](O)[C@@H](CO)O2)c(=O)n1` gave an AUC(0-180) of 1.14 µM·h (male CD-1 mice, plasma; oral, 167 mg/kg THU + 0.2 mg/kg, day 58).
`CC(C)=CCc1c(O)c(CC=C(C)C)c2oc3c(O)cccc3c(=O)c2c1O` — result for “free tumour concentration”: 540 ± 40 ng/g (Balb/c nu/nu mice, HT-29 xenograft, tumour tissue; oral, 901 mg/kg xanthones in diet, 4 weeks after implantation).
Under “peak drug concentration”, `CN[C@H](CC(C)C)C(=O)N[C@H]1C(=O)N[C@@H](CC(N)=O)C(=O)N[C@H]2C(=O)N[C@H]3C(=O)N[C@H](C(=O)N[C@H](C(=O)O)c4cc(O)cc(O)c4-c4cc3ccc4O)[C@H](O)c3ccc(c(Cl)c3)Oc3cc2cc(c3O[C@@H]2O[C@H](CO)[C@@H](O)[C@H](O)[C@H]2O[C@H]2C[C@](C)(N)[C@H](O)[C@H](C)O2)Oc2ccc(cc2Cl)[C@H]1O` is recorded as 1900 ng/µL (LC-MS/MS; New Zealand White rabbit, tibial medullary bone; intraosseous, 30 mg/kg, end of infusion).
For `C[C@@H]1CN(c2c(F)c(N)c3c(=O)c(C(=O)O)cn(C4CC4)c3c2F)C[C@H](C)N1`, the QTc change was 9.8 ± 1.7% (male Hartley guinea pig, anaesthetized; intravenous infusion, 10 mg/kg, 10 min infusion; relative to: baseline).
`COc1c(OCCCN2CCOCC2)ccc2c1N=C(NC(=O)c1cnc(N)nc1)N1CCN=C21` has an AUC(0-25 h) of 743 ng·h/mL (human patients, plasma; intravenous, 0.4 mg/kg weekly, cycle 1 day 15, with: refametinib 30 mg twice daily oral).
For `Cc1ccc(NC(=O)c2ccc(CN3CCN(C)CC3)cc2)cc1Nc1nccc(-c2cncc(-c3oncc3C)c2)n1`, the half-life was 24.6 h (Parkinson's disease patients, plasma; oral, 100 mg once daily, day 7, 7-day dosing, mean).
For `CN[C@H](CC(C)C)C(=O)N[C@H]1C(=O)N[C@@H](CC(N)=O)C(=O)N[C@H]2C(=O)N[C@H]3C(=O)N[C@H](C(=O)N[C@H](C(=O)O)c4cc(O)cc(O)c4-c4cc3ccc4O)[C@H](O)c3ccc(c(Cl)c3)Oc3cc2cc(c3O[C@@H]2O[C@H](CO)[C@@H](O)[C@H](O)[C@H]2O[C@H]2C[C@](C)(N)[C@H](O)[C@H](C)O2)Oc2ccc(cc2Cl)[C@H]1O`, “time to concentration” read ≤ 15 min (pig, all compartments; intravenous infusion, 1000 mg, infusion 100 min, with: 2 µg/mL).
The recovery of `CCCCC/C=C/C(=O)CCc1ccc(O)c(OC)c1` is reported as 0.34% (rat, small intestine site 4 contents; oral, dose not given, 4 h, β-glucuronidase treated; relative to: ingested amount).
Under “average steady-state concentration”, `CC[C@H](C)[C@H](NC(=O)[C@H](Cc1ccccc1)NC(=O)[C@H](CCC(=O)O)NC(=O)[C@H](CCCCNC(=O)COCCOCCNC(=O)COCCOCCNC(=O)CC[C@H](NC(=O)CCCCCCCCCCCCCCCCC(=O)O)C(=O)O)NC(=O)[C@H](C)NC(=O)[C@H](C)NC(=O)[C@H](CCC(N)=O)NC(=O)CNC(=O)[C@H](CCC(=O)O)NC(=O)[C@H](CC(C)C)NC(=O)[C@H](Cc1ccc(O)cc1)NC(=O)[C@H](CO)NC(=O)[C@H](CO)NC(=O)[C@@H](NC(=O)[C@H](CC(=O)O)NC(=O)[C@H](CO)NC(=O)[C@@H](NC(=O)[C@H](Cc1ccccc1)NC(=O)[C@@H](NC(=O)CNC(=O)[C@H](CCC(=O)O)NC(=O)C(C)(C)NC(=O)[C@@H](N)Cc1cnc[nH]1)[C@@H](C)O)[C@@H](C)O)C(C)C)C(=O)N[C@@H](C)C(=O)N[C@@H](Cc1c[nH]c2ccccc12)C(=O)N[C@@H](CC(C)C)C(=O)N[C@H](C(=O)N[C@@H](CCCNC(=N)N)C(=O)NCC(=O)N[C@@H](CCCNC(=N)N)C(=O)NCC(=O)O)C(C)C` is recorded as 23.8 nmol/L (healthy Chinese subjects, plasma; subcutaneous, 0.5 mg once weekly).
`CS(=O)(=O)OC[C@H](O)[C@@H]1CO1` has a concentration of 5.2 µM (Wistar rat, female, plasma; intraperitoneal, 500 mg/kg of treosulfan, 4 h).
`CCN(CC)C(=S)SSC(=S)N(CC)CC` has a thermodynamic solubility of 55.7 ± 3.32 mg/g (shake-flask; polysorbate 80; 37 °C).
`c1cc(-c2c[nH]c3nccc(N4CCC[C@@]5(CCCCN5)C4)c23)ncn1` — result for “blood concentration ratio”: 4 fold (FVB mice, blood; topical, repeated 25 µg; relative to: single 10 µg dose).
`CCOc1nc2cccc(C(=O)OC(C)OC(=O)OC3CCCCC3)c2n1Cc1ccc(-c2ccccc2-c2nnn[nH]2)cc1` (stereo not shown) has a thermodynamic solubility of 0.71 ± 0.02 mg/g (shake-flask; Captex 355; 37 °C).
`COC(=O)C[C@](O)(CCCC(C)(C)O)C(=O)O[C@@H]1C(OC)=C[C@]23CCCN2CCc2cc4c(cc2[C@H]13)OCO4` — result for tissue concentration: “not detected” (CD1 mice, esophagus; oral, 1 mg/kg, 8 h).
`Cc1cc(Nc2ncc(Cl)c(Nc3ccccc3S(=O)(=O)C(C)C)n2)c(OC(C)C)cc1C1CCNCC1` — result for “AUC(tau) at steady state”: 22.8 µM·h (refers to: total drug; patients, plasma; oral, 750 or 450 mg/day, geometric mean).
The AUC(0-2 h) of `N[C@@H](CC(=O)N1CCn2c(nnc2C(F)(F)F)C1)Cc1cc(F)c(F)cc1F` is reported as 473 ± 195 ng·h/mL (healthy Korean subjects, plasma; oral, 100 mg single dose, ABCB1 C3435T CT+TT).
The thermodynamic solubility of `CCC(C)n1ncn(-c2ccc(N3CCN(c4ccc(OCC5COC(Cn6cncn6)(c6ccc(Cl)cc6Cl)O5)cc4)CC3)cc2)c1=O` (stereo not shown) is reported as 1.42 ± 0.19 mg/g (shake-flask; polysorbate 80; 37 °C).
`Cn1c(=O)c2c([nH]c(=O)n2C)n(C)c1=O` — result for “total plasma concentration ratio”: 3 (human hemodialysis patients, plasma; pre-treatment; relative to: hemodialysis over normal subjects).
With `Cc1cc(Nc2cc3ncccc3c(N[C@@H]3C[C@H]4CC[C@@H](C3)N4CCC#N)n2)n[nH]1` the Cmax was 10.4 ng/mL (beagle dog, female, plasma; oral, 10 mg/kg/day, last day of 4 weeks).
With `O=C(O)C[C@H](O)C[C@H](O)/C=C/c1c(C2CC2)nc2ccccc2c1-c1ccc(F)cc1` the AUC(0-27 h) was 9.1 µM·h (male Sprague Dawley rat, NASH, plasma; oral, 2.5 mg/kg, geometric mean, with: vehicle).
`CC(=O)Oc1ccccc1C(=O)Nc1ncc([N+](=O)[O-])s1` — result for “body weight loss”: 7 to 10% (nude mouse, SK-ST breast xenograft; oral, 200 mg/kg twice daily, 12 days, reversible after stopping).
With `CNc1nc(Nc2ccc(-n3cnc(C)n3)c(OC)c2)nc2c1CC[C@H]2c1ccc(F)cc1` the AUC(0-inf) was 52200 ng·h/mL (human, plasma; oral, 1200 mg, single dose, healthy volunteers).
`CCCC[C@@H]1NC(=O)[C@@H](NC(=O)[C@H](CCC(=O)O)NC(=O)CNC(=O)CN2CCN(CC(=O)O)CCN(CC(=O)O)CCN(CC(=O)O)CC2)CCCCNC(=O)C[C@@H](C(N)=O)NC(=O)[C@H](C(C)C)NC(=O)[C@@H]2CCCN2C(=O)[C@H](CCCNC(=N)N)NC(=O)CNC(=O)[C@H](Cc2c[nH]c3ccccc23)NC(=O)[C@H](CCCNC(=N)N)NC(=O)[C@@H](Cc2ccccc2)NC(=O)[C@H](Cc2c[nH]cn2)NC(=O)[C@H](CCC(=O)O)NC1=O` [indium-111 labelled] has a tissue uptake of 0.01 ± 0.01 %ID/g (normal C57 mice, blood; intravenous, 0.037 MBq, 2 h).
`O=c1cc(-c2ccc(O)cc2)oc2cc(O[C@@H]3O[C@H](CO)[C@@H](O)[C@H](O)[C@H]3O)cc(O)c12` gave a Papp A→B of 5.75 ×10⁻⁶ cm/s (mass spectrometry; Caco-2; 40 µM, 6 h).
For `RTRYED`, the peptide cleavage was > 90% and > 80% (substrate, gel electrophoresis; peptide, mouse, PyMT tumour, PyMT tumour tissue extract; 5 µM, 16 h, 37 °C, 2% extract, 1 mM ZnCl2).

Repeated from above:
`Cn1c(=O)c2c([nH]c(=O)n2C)n(C)c1=O` — result for “total plasma concentration ratio”: 3 (human hemodialysis patients, plasma; pre-treatment; relative to: hemodialysis over normal subjects).
Under “QTc interval (QTcB or QTcF)”, `Cc1cc(S(C)(=O)=O)c(S(C)(=O)=O)cc1C(=O)NC(=N)N` is recorded as < 450 ms (ambulant boys with DMD; oral, dose not given, 4 weeks).
The median AUC(0-inf) of `CCCC[C@H](NC(C)=O)C(=O)N[C@H]1CCC(=O)NC[C@@H](C(=O)N[C@@H](Cc2c[nH]c3ccccc23)C(N)=O)NC(=O)[C@H](CCCNC(=N)N)NC(=O)[C@@H](Cc2ccccc2)NC(=O)[C@H](Cc2c[nH]cn2)NC1=O` is reported as 49.4 ng·h/mL (healthy volunteers, both sexes, plasma; subcutaneous, 1.0 mg once daily, day 1).
